Published values from different studies.
Each line is one published result; not all experiments were run side by side.
gag-pol reverse transcriptase: Gag-Pol polyprotein, reverse transcriptase (gag-pol, Human immunodeficiency virus 1, UniProt P03366)
ACTA1 pyrene-labeled: Actin, alpha skeletal muscle, pyrene-labeled (ACTA1, Oryctolagus cuniculus, UniProt P68135)
CCKAR: Cholecystokinin receptor type A (CCKAR, Homo sapiens, UniProt P32238)
Voltage-dependent P/Q-type calcium channel subunit alpha-1A: Voltage-dependent P/Q-type calcium channel subunit alpha-1A (Homo sapiens, UniProt O00555)
PRKCB isoform beta-II: Protein kinase C beta type, isoform beta-II (PRKCB, Homo sapiens, UniProt P05771)

O=C1CSC(c2c(F)cccc2Cl)N1c1nc(-c2ccc(S(=O)(=O)N3CCOCC3)cc2)cs1 (stereo not shown) — inhibition (gag-pol reverse transcriptase; 4 µM): 61.3%
CO[C@]1([C@@H]2CSC(=O)N2Cc2ccccc2)C[C@H]2C[C@@H](CC[C@H](C)/C=C\C=C\CC/C(C)=C\C(=O)O2)O1 — inhibition (ACTA1 pyrene-labeled; actin polymerization, pyrene actin; 0.1 µM; baseline: vehicle): 33%
COc1cc(Nc2ncc(F)c(Nc3ccc4c(n3)NC(=O)C(C)(C)O4)n2)cc(OC)c1OC — inhibition (BMP2K (Homo sapiens, UniProt Q9NSY1); KINOMEscan; 10 µM, BIKE): 96%
CN1CCN(c2cc(-c3ccncc3)c(-c3ccc4ccccc4c3)nn2)CC1 — inhibition (P2Y purinoceptor 1 (P2RY1, Homo sapiens, UniProt P47900); antagonist, FLIPR; 10 µM): 5.1%
O=C1CSC(c2ccc(F)cc2)N1c1cccc(S(=O)(=O)Nc2nccs2)c1 (stereo not shown) — inhibition (gag-pol reverse transcriptase; 4 µM): 68.3%
C#Cc1n[nH]c2c(-c3cn(C(C)c4ccccn4)c(=O)[nH]c3=O)cc(F)cc12 (stereo not shown) — inhibition (Phosphatidylinositol 4,5-bisphosphate 3-kinase catalytic subunit alpha isoform, with p85 alpha (PIK3CA, Homo sapiens, UniProt P42336); kinase activity, inhibitor; 1 µM): -8.8%
O=C(Nc1cccnn1)N1CCC(=Cc2cccc(Oc3ccc(C(F)(F)F)cn3)c2)CC1 — inhibition (ryanodine receptor RyR3, rat; binding; 10 µM, together with: [3H]ryanodine): -16%
C/C1=C/C(=O)O[C@@H]2C[C@@H](CC[C@H](C)/C=C\C=C\CC1)O[C@@](O)([C@@H]1CSC(=O)N1CO)C2 — inhibition (ACTA1 pyrene-labeled; actin polymerization, pyrene actin; 1 µM; baseline: vehicle): 90%
O=C(Nc1cnccc1Cl)N1CCN(Cc2ccc3c(c2)OC(F)(F)O3)CC1 — inhibition (CCKAR; binding; 10 µM, together with: [3H]L-364,718): -5%
O=C1CSC(c2ccc(Cl)cc2)N1c1nc(-c2ccc(S(=O)(=O)N3CCOCC3)cc2)cs1 (stereo not shown) — inhibition (gag-pol reverse transcriptase; 4 µM): 81.3%
Cn1cccc1-c1cccnc1 — inhibition (CHRM1 (Homo sapiens, UniProt P11229); binding; 50 µM): 1.65%
Nc1ccncc1 — inhibition (Voltage-dependent P/Q-type calcium channel subunit alpha-1A; antagonist; 3 µM): 18%
C/C1=C/C(=O)O[C@@H]2C[C@@H](CC[C@H](C)/C=C\C=C\CC1)O[C@@](OCCc1ccccc1)([C@@H]1CSC(=O)N1)C2 — inhibition (ACTA1 pyrene-labeled; actin polymerization, pyrene actin; 0.1 µM; baseline: vehicle): 31%
C[C@H](C(=O)N[C@H]1COc2ccccc2[C@@H]1S(C)(=O)=O)c1ccc(F)cc1 — inhibition (CHUK (Homo sapiens, UniProt O15111); enzyme activity; 10 µM, Eurofins selectivity panel): -1%
Cn1cc(-c2cccc(N3CCc4c(sc5c4CC(C)(C)C5)C3=O)c2CO)cc(Nc2ccncn2)c1=O — inhibition (PRKCB isoform beta-II; kinase activity, inhibitor, SelectScreen kinase profiling; 1 µM, together with: ATP at apparent Km): -1%
CO[C@]1([C@@H]2CSC(=O)N2CCCO)C[C@H]2C[C@@H](CC[C@H](C)/C=C\C=C\CC/C(C)=C\C(=O)O2)O1 — inhibition (ACTA1 pyrene-labeled; actin polymerization, pyrene actin; 0.1 µM; baseline: vehicle): 0%
CCN(Cc1ccccc1C(F)(F)F)C(=O)C1CCN(S(=O)(=O)c2ccc3[nH]ncc3c2)CC1 — inhibition (rat central GABAA receptor; radioligand binding; 10 µM, together with: flunitrazepam): 1%
FC(F)(F)c1cccc(Nc2nc(NCCOc3ccccc3)nc3[nH]cnc23)c1 — inhibition (PRKCB (Homo sapiens, UniProt P05771); kinase activity, Z'-LYTE; 5 µM): 7%
CN(CCN1CCC(OC(=O)Nc2ccccc2-c2ccccc2)CC1)C(=O)c1ccc(CN2CCC(C(N)=O)CC2)cc1 — inhibition (human androgen receptor; radioligand binding; 1 µM, together with: [3H]mibolerone 1.0 nM): 3%
O=C1CSC(c2cccc(F)c2)N1c1cccc(S(=O)(=O)Nc2nccs2)c1 (stereo not shown) — inhibition (gag-pol reverse transcriptase; 4 µM): 46.1%
Cc1ncc(C)n2nc(/C=C/c3nc(N4CCCC4)cc(N4CCOCC4)n3)nc12 — inhibition (PCP receptor; binding; 10 µM): 4%
CN(C(=O)n1cnc(-c2ccc[n+]([O-])c2)c1)C1CCCCC1 — inhibition (ryanodine receptor RyR3, rat; binding; 10 µM, together with: [3H]ryanodine): -7%
O=c1ccc2ccccc2o1 — inhibition (CCKAR; radioligand binding; 10 µM): 0.416%
Cn1cc(-c2cc(F)cc(N3CCn4c(cc5c4CCCC5)C3=O)c2CO)cc(Nc2ccc(N3CCN(C4COC4)CC3)cn2)c1=O — inhibition (PRKCB isoform beta-II; kinase activity, inhibitor, SelectScreen kinase profiling; 0.1 µM, together with: ATP at apparent Km): 5%
O=C1CSC(c2cccc(Cl)c2)N1c1cccc(S(=O)(=O)Nc2nccs2)c1 (stereo not shown) — inhibition (gag-pol reverse transcriptase; 4 µM): 65.1%
COc1ccc(N2C(=O)N(c3c(C)cccc3Cl)Cc3cnc(Nc4ccc(C5CCN(C)CC5)cc4OC)nc32)nc1 — inhibition (MAPK9 (Homo sapiens, UniProt P45984); kinase activity, inhibitor; 0.5 µM, kinase JNK2): 2.5%
COc1cccc(C2SCC(=O)N2c2nc(-c3ccc(S(=O)(=O)N4CCOCC4)cc3)cs2)c1 (stereo not shown) — inhibition (gag-pol reverse transcriptase; 4 µM): 7.63%
CO[C@]1([C@@H]2CSC(=O)N2C(=O)c2ccccc2)C[C@H]2C[C@@H](CC[C@H](C)/C=C\C=C\CC/C(C)=C\C(=O)O2)O1 — inhibition (ACTA1 pyrene-labeled; actin polymerization, pyrene actin; 1 µM; baseline: vehicle): 53%
c1ccc(C(NCCNC(c2ccccc2)c2ccccc2)c2ccccc2)cc1 — inhibition (GABBR1 (Homo sapiens, UniProt Q9UBS5); activity; 10 µM, Eurofins selectivity panel): -8%
CC[C@H](C)[C@H](NC(=O)[C@@H](NC(=O)[C@H](N)Cc1ccccc1)C(C)C)C(=O)N[C@@H](C)C(N)=O — inhibition (APP (Homo sapiens, UniProt P05067); amyloid-beta aggregation, thioflavin T fluorescence; 2.0 µM, 96 h, together with: 2 µM amyloid-beta): 94%
COC(C(=O)N1C(=O)SCC1C1(OC)CC2CC(CCC(C)C=CC=CCCC(C)=CC(=O)O2)O1)c1ccccc1 (stereo not shown) — inhibition (ACTA1 pyrene-labeled; actin polymerization, pyrene actin; 0.1 µM; baseline: vehicle): 0%
CCN(C)C(=O)Oc1cccc([C@H](C)N(C)C)c1 — inhibition (Voltage-dependent P/Q-type calcium channel subunit alpha-1A; ion current, antagonist; HEK293; 3 µM): 2%
O=C(O[C@@H]1Cc2c(O)cc(O)cc2O[C@@H]1c1cc(O)c(=O)c2c(O)c(O)cc([C@H]3Oc4cc(O)cc(O)c4C[C@H]3OC(=O)c3cc(O)c(O)c(O)c3)c2c1)c1cc(O)c(O)c(O)c1 — inhibition (PDIA3 (Homo sapiens, UniProt P30101); di-eosin-GSSG reductase activity; 20 µM, 15 min): inhibited
CN1CCN(c2nc(N)c3ccccc3n2)CC1 — inhibition (5-hydroxytryptamine receptor 4, isoform 5-HT4e (HTR4, Homo sapiens, UniProt Q13639); radioligand binding; 0.1 µM): 1.8%

A few entries again:
COc1ccc(N2C(=O)N(c3c(C)cccc3Cl)Cc3cnc(Nc4ccc(C5CCN(C)CC5)cc4OC)nc32)nc1 — inhibition (MAPK9 (Homo sapiens, UniProt P45984); kinase activity, inhibitor; 0.5 µM, kinase JNK2): 2.5%
Cc1ncc(C)n2nc(/C=C/c3nc(N4CCCC4)cc(N4CCOCC4)n3)nc12 — inhibition (PCP receptor; binding; 10 µM): 4%
